Experimental data of several laboratories.
Each numbered part is a random draw from the data of one study; scales do not carry over between parts. Changes are numbered by the printed parent chain.

Series 1
Target: RING finger protein unkempt homolog, zinc fingers 1-6, GST-SBP tag (UNK, Homo sapiens, UniProt Q9C0B0, residues 30-357)
Technique: RNA Bind-n-Seq
Form: RNA
Sample: in vitro
Concentration: not given
Setting: RNA with constant flanks, ends assumed
Relative to: input RNA pool
Reading: higher = stronger binding
All sequences stand within: GGGAGUUCUACAGUCCGACGAUC … CAACAGAGGAUUGAGCAUCA
Construct (chain): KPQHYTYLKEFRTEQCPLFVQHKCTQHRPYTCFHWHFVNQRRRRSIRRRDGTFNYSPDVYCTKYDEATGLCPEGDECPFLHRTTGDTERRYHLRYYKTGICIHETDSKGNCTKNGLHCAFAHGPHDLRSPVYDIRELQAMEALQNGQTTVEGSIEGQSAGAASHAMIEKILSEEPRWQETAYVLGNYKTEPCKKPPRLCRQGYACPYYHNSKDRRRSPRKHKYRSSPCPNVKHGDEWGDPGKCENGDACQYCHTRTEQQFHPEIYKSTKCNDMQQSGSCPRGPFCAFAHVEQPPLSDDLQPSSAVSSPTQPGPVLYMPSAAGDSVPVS
Oligonucleotide	bound/input enrichment
GGUGAGAGUAUCAUGGUUGAACUCGCAGCUGGACCUUUUGGAAAUAAUGAAAAGUUGCCAGCCGUCAUCAGAGUACCAAAACUGAUCUAUUUCUCAGUAAUGAGUGUGUGCCUCAUGCCU	0.125 ratio
CAUCGCAUGCCCAGGGACCACUGCCUGGCAUUAUCGCAUGCUGGGAUCAUCGGGGGAGGGCCGUGAAGCUCACCACUGUCCUUUGUUUUGGAGAUUUUUAUUUUUGCAUAAGUAGUCCAU	0.0888 ratio
UUGGUGUCUAGAGCUCACCAGCUAGUGAUGGAGGGAUAUAACUGGUGCCAUGACCGGAAUGCCGUAACGAUUUUCAGUGCUCCAAACUAUUGUUAUCGUUGUGGUAACCAAGCUGCAAUC	0.922 ratio
CAUCGCAUGCCCAGGGGCCACUACCUGGCAUUAUCGCAUGCUGGGAUCAUUGGGGGAGGGCCGUUUGAAAUUCACCACUGUCCUUUGUUUUGGAGAUUCUUAUUUUUUAAUAAGUAAUCC	0.219 ratio
AUUAUUUUUAAUGAAAUGCCAAUAUAAUUUUUUAAGAAAGCAGUAAAUUCUCAUCAUGAUCACCGGCAGUUGAAAACUUUUUACUCAUUUUUUUCAUGUUUUACAUGAAAAUAAUGCUUU	0.274 ratio
GACCCAAGUAAUCCAAUUCGAAGACCAAUUUCAGCAGACAGCGCCAUCAUGAAUCCAGCCCGCAAAGUAAUUGCACUGAAAGCUGGGAAAACUCUUCAGAUUUUUAACAUUGAAAUGAAA	0.469 ratio
GGACUGCAGAAUGGCUCAGACUUGCAGUUCAUCGAAAUGCAGAGAGAUGCCAAUAGACAAAUCCGCGAAUACAAAUUUAAGCUUUCAAAAGCAGAACAGGAUAUAACUACCUUGGAGCAA	0.154 ratio

Series 2
Target: CCNE2, cyclin fold, Cln2 fusion (human)
Technique: yeast growth competition, sequencing
Sample: yeast
Setting: weak parent motif
Relative to: not given
Reading: higher = stronger binding
Starting sequence: PKMYT1 docking peptide (human); SFEPRNLLSLFED
Change	normalised enrichment score
SFEPRNHLSLFED [L7H]	-0.0114
SFDPRNLLSLFED [E3D]	-0.149
SFEPRNLLSNFED [L10N]	0.513
SFEPRNLDSLFED [L8D]	-0.83
SFEPRMLLSLFED [N6M]	-0.722
NFEPRNLLSLFED [S1N]	0.541
SNEPRNLLSLFED [F2N]	-0.712

Series 3
Target: PABPC1L2, full length, GST fusion (mouse, UniProt A0ABA7IW68)
Technique: RNAcompete
Form: RNA
Sample: in vitro
Concentration: 20 nM
Setting: 7-mer, probes averaged, single round
Relative to: mean of 7-mers
Reading: higher = stronger binding
Residues (chain): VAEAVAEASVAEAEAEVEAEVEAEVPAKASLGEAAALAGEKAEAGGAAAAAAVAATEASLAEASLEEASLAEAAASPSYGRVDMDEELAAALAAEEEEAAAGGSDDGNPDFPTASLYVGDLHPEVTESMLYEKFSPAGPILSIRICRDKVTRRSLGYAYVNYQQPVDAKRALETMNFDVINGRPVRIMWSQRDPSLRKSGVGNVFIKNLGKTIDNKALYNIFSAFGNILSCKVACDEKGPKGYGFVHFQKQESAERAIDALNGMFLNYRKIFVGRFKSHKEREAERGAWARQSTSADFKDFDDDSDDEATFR
Oligonucleotide	7-mer Z-score
GGACGCG	0.162
AUUACGG	0.124
CCAGGCA	0.113
ACUGUGA	-0.188
CGACAAG	0.155

Single results of other studies
Molecule	target	test	system	setting	how to read	measurement	value
PhoQ, residues 284 288 289 292 302 303 SSTMSV	PhoP, residues 12 14 15 18 19 AQALL (Escherichia coli, UniProt P23836)	Sort-seq, item: YFP reporter	E. coli	PhoQ-PhoP variant library, together with: 10 µM Mg2+	relative to: high Mg2+ state, higher = stronger signaling	fold induction	9.96
